Results from different studies.
Each line is one published result; not all experiments were run side by side. pIC50: −log10 of the molar value.

SMILES	cell line	assay	setting	how to read	measurement	result
C=CCc1cc2c(c(OC)c1OC)OCO2	T47D	cell growth or viability, MTT	72 h		GI50	80.5 µM
COc1cc(CNC(=O)C[C@H](C)CCC=C(C)C)ccc1OCc1cn(-c2ccccc2[N+](=O)[O-])nn1	HL-60(TB)	SRB	10 µM, 48 h		growth	47.7%
CC/C=C\C/C=C\C/C=C\C/C=C\C/C=C\C/C=C\CCC(=O)Nc1ccn(C2OC(CO)C(O)C2(F)F)c(=O)n1 (stereo not drawn)	HL-60(TB)				CC50	> 100 µM
CC[C@H](C)[C@H](NC(=O)[C@H](CCCCN)NC(=O)[C@H](CCCCN)NC(=O)[C@H](C)NC(=O)[C@@H](NC(=O)[C@H](C)NC(=O)[C@H](CC(C)C)NC(=O)[C@H](CC(C)C)NC(=O)[C@H](C)NC(=O)[C@H](CCCCN)NC(=O)[C@H](CC(C)C)NC(=O)[C@H](CC(N)=O)NC(=O)[C@@H](N)CC(C)C)C(C)C)C(=O)N[C@@H](CC(C)C)C(N)=O	HMEC-1	cell growth or viability, MTT	24 h		pIC50	4.24
COc1cc(CNC(=O)C[C@H](C)CCC=C(C)C)ccc1OCc1cn(-c2ccccc2F)nn1	HL-60(TB)	SRB	10 µM, 48 h		growth	91.5%
COC[C@@H](NC(C)=O)C(=O)NCc1ccc(N=[N+]=[N-])cc1	CAD	whole-cell patch clamp	100 µM		slow inactivation onset potential	> -80 mV
CC(=O)OC[C@H]1O[C@@H](Sc2sc(C(=O)c3ccc(C)cc3)c(N)c2-c2nc3ccccc3s2)[C@H](OC(C)=O)[C@@H](OC(C)=O)[C@@H]1OC(C)=O	HL-60(TB)		10 µM, 48 h		growth	80%
COc1cc(CNC(=O)C[C@H](C)CCC=C(C)C)ccc1O	HL-60(TB)	SRB	10 µM, 48 h		growth	76.4%
CC[C@H](C)[C@H](NC(=O)[C@H](C)NC(=O)CNC(=O)[C@H](CCCCN)NC(=O)[C@H](CC(N)=O)NC(=O)[C@H](CO)NC(=O)CN)C(=O)N[C@H](C(=O)NCC(=O)N[C@@H](CC(C)C)C(=O)N[C@@H](CCSC)C(=O)O)[C@@H](C)CC	rat primary cortical neurons	immunostaining	10 µM	relative to: no compound	BrdU+/NeuN+ cells	~50%
CC(=O)OC[C@H]1O[C@@H](Sc2sc(C(=O)c3ccc(Br)cc3)c(N)c2-c2nc3ccccc3s2)[C@H](OC(C)=O)[C@@H](OC(C)=O)[C@H]1OC(C)=O	HL-60(TB)		10 µM, 48 h		growth	105%
COc1cc(CNC(=O)C[C@H](C)CCC=C(C)C)ccc1OCc1cn(-c2cccc(Cl)c2)nn1	HL-60(TB)	SRB	10 µM, 48 h		growth	83.9%
COc1ccc(-n2cc(C(=O)N3C[C@]4(OC(=O)c5ccccc5NC(C)=O)CC[C@H](OC)[C@@]56[C@@H]4C[C@@H]([C@@H]35)[C@@]3(O)C[C@H](OC)[C@H]4C[C@@H]6[C@]3(O)[C@H]4OC)nn2)cc1	RAW264.7	western blot	30, 60 or 120 µM, 24 h, with: LPS 1 µg/mL		p-p65/p65 ratio	decreased

Repeated from above:
SMILES	cell line	assay	setting	how to read	measurement	result
COc1cc(CNC(=O)C[C@H](C)CCC=C(C)C)ccc1OCc1cn(-c2cccc(Cl)c2)nn1	HL-60(TB)	SRB	10 µM, 48 h		growth	83.9%
